{"data": "Assay results of several laboratories", "AKT3": "RAC-gamma serine/threonine-protein kinase (AKT3, Homo sapiens, UniProt Q9Y243)", "note": "Lines come from different studies, so protocols differ. “And” joins repeats or separate records; there may be more than shown. ± marks the error that the study gave.", "sequence of UniProt Q9Y243 (whole entry, looked up)": "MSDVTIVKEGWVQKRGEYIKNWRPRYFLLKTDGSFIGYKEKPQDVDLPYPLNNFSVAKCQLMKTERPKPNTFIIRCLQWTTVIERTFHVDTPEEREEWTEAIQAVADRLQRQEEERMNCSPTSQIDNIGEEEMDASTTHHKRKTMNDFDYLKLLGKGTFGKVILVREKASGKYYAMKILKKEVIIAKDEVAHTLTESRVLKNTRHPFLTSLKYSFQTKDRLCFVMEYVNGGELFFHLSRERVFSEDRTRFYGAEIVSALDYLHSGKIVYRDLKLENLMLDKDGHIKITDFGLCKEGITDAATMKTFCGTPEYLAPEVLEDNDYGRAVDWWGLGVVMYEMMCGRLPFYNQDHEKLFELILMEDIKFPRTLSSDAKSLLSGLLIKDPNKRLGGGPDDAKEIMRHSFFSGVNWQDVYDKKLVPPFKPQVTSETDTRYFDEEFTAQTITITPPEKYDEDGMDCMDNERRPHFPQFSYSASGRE", "sequence of UniProt Q9Y2U5 (whole entry, looked up)": "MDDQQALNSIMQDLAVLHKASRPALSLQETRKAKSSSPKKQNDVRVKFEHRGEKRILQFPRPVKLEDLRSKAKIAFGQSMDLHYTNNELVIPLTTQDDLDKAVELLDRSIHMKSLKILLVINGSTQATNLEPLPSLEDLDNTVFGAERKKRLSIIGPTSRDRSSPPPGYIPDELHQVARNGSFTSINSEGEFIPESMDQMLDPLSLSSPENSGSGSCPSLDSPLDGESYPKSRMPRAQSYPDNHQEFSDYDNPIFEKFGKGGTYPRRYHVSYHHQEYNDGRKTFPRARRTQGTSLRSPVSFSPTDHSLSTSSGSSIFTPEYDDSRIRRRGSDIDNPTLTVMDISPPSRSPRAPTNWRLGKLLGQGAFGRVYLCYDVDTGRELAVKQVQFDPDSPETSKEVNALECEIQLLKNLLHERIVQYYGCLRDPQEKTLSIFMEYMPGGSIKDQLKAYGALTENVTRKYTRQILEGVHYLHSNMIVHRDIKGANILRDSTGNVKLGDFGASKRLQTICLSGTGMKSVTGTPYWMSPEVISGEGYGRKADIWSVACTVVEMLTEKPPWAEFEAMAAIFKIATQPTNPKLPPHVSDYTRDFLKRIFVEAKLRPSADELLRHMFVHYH", "sequence of UniProt Q9UBE8 (whole entry, looked up)": "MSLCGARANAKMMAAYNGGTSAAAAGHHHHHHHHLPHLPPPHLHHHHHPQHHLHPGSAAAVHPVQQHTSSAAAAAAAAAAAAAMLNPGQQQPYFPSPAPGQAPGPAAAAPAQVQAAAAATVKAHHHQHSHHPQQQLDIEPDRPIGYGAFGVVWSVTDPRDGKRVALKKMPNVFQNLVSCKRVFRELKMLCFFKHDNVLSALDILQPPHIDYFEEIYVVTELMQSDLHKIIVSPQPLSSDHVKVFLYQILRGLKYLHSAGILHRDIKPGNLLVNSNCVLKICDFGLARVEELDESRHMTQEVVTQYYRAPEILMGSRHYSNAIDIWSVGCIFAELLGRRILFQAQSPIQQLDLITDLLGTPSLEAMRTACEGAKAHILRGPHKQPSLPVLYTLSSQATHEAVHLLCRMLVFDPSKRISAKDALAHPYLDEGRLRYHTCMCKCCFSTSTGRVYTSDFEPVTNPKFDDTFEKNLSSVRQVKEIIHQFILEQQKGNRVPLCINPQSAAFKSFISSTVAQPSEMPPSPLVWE", "sequence of UniProt Q01718 (whole entry, looked up)": "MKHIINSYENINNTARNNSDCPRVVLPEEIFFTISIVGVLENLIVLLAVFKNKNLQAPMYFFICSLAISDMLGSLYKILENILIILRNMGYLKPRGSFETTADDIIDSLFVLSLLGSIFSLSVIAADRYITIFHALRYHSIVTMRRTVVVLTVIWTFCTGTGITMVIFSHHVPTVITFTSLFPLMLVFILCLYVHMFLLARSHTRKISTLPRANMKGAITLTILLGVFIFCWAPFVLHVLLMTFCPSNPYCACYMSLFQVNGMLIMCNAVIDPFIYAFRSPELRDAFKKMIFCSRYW"}
{"SMILES": "CCCCCCCCCCCC(=O)C(C)C(=O)N1CCC[C@H]1C(=O)NC(C)(C)C(=O)NC(C)(C)C(=O)NC(C)(C)C(=O)N[C@](C)(CC)C(=O)NCCC(=O)N[C@@H](C)C(=O)N[C@](C)(CC)C(=O)N[C@@H](C)C(=O)N[C@@H](CC(C)C)C(=O)N[C@](C)(CC)C(=O)NCCC(=O)N[C@@H](C)C(=O)N[C@](C)(CC)C(=O)NCCC(=O)N[C@@H](C)C(=O)NC(C)(C)C(=O)NC(C)(C)C(=O)NC(C)(C)C(=O)N[C@@H](C)C(=O)N[C@@H](CC(=O)O)C(=O)O (stereo partly drawn)", "target or system": "β-1,3-glucan", "assay": "pull-down, LC-MS", "conditions": "1 h, pH 7.0, 30 °C, together with: β-glucan 1 mg/mL", "how to read": "higher = less bound", "quantity": "unbound compound (MS peak area)", "value": "712 a.u. and 927 a.u."}
{"SMILES": "O=C1NC(=O)c2c1c1cc(F)c[n+]3c1c1c2c2cc(O)ccc2[n]1[Ru-4]312([N]=C=S)[S+]3CC[S+]1CC[S+]2CC3 (stereo not drawn)", "target or system": "AKT3", "assay": "enzyme activity", "conditions": "100 nM, human enzyme, together with: 10 µM ATP", "how to read": "reference: untreated", "quantity": "remaining activity", "value": "6%"}
{"SMILES": "N[C@H](C(=O)N1CCCC1)C1CCN(c2nccc3c(-c4ncc(Cl)cc4Cl)cccc23)CC1", "target or system": "MC2R (Homo sapiens, UniProt Q01718)", "assay": "functional response, agonist", "conditions": "10 µM", "quantity": "response", "value": "3%"}
{"SMILES": "Cc1cc(Oc2nc(N3CC[C@@H](c4ccncc4)C3)ncc2F)[nH]n1", "target or system": "CAKI-1", "assay": "cell proliferation", "test system": "kidney cancer", "quantity": "IC50", "value": "28.2 µM"}
{"SMILES": "Cl.Oc1ccc(Nc2ccnc3cc(Cl)ccc23)cc1", "target or system": "Dengue virus type 2", "assay": "viral replication, Rluc reporter replicon", "test system": "BHK-21 DENV2 replicon cells", "conditions": "50 µM, 24 h", "quantity": "inhibition", "value": "3.9 ± 0.3%"}
{"SMILES": "CC1CCC2C(C)C(CCCOC(=O)C(Cc3ccc(N(CCCl)CCCl)cc3)NC(=O)OC(C)(C)C)OC3OC4(C)CCC1C32OO4 (stereo not drawn)", "target or system": "DU-145", "assay": "cell growth or viability, CCK-8", "quantity": "IC50", "value": "> 50 µM"}
{"SMILES": "O=C(O)c1ccc(-c2nc(-c3ccccc3Cl)c3sccn23)cc1", "test system": "C57BL/6 mice, 5-fluorouracil treated", "conditions": "dose not given, day 26", "how to read": "reference: RBC", "quantity": "reticulocytes", "value": "14.9% and 18.7% and 13.4%"}
{"SMILES": "CN1C(=O)C(C2C3=C(CC(C)(C)CC3=O)Oc3ccc([N+](=O)[O-])cc32)C(=O)N(C)C1=O (stereo not drawn)", "target or system": "3T3-L1 preadipocytes", "assay": "adipogenesis, Oil Red O staining", "conditions": "IC20, 14 days, single replicate", "quantity": "lipid content", "value": "0.643 OD492 and 0.651 OD492 and 0.668 OD492"}
{"SMILES": "CC(C)(C)C(=O)OCOP(=O)(OCOC(=O)C(C)(C)C)C1CCCN(O)C1=O (stereo not drawn)", "target or system": "HOP-92", "quantity": "TGI", "value": "51.5 µM"}
{"SMILES": "Cc1cc(-c2ccc3ccccc3c2)nnc1NCCN1CCN(C)CC1", "target or system": "CYP2C19 (Homo sapiens, UniProt P33261)", "assay": "substrate", "test system": "recombinant enzyme", "conditions": "100 nM, 1 h", "quantity": "remaining compound", "value": "94%"}
{"SMILES": "CCN(CC)Cc1cc(Nc2c(C)cnc3cc(Cl)ccc23)ccc1O.Cl", "target or system": "Dengue virus type 2", "assay": "viral replication, Rluc reporter replicon", "test system": "BHK-21 DENV2 replicon cells", "conditions": "50 µM, 24 h", "quantity": "inhibition", "value": "89.9 ± 10.6%"}
{"SMILES": "CC[C@@H]1CN2CCc3c([nH]c4cccc(OC)c34)[C@@H]2C[C@@H]1/C(=C\\OC)C(=O)OC", "target or system": "rabbit anti-mitragynine polyclonal IgG", "assay": "antigen binding, competitor, competitive indirect ELISA", "test system": "15% methanol", "conditions": "60 min antibody-standard, 30 min antibody-antigen incubation", "quantity": "IC50", "value": "0.59 µg/mL and 0.58 µg/mL"}
{"SMILES": "CC(C)[C@H]1NC(=O)C[C@H]2/C=C/CCSSC[C@@H](NC1=O)C(=O)N[C@H](Cc1cccc3ccccc13)C(=O)NCC(=O)O2", "target or system": "MAP3K2 (Homo sapiens, UniProt Q9Y2U5)", "conditions": "10 µM", "quantity": "inhibition", "value": "1.5%"}
{"SMILES": "CS(C)(=O)=Nc1ccc(-c2ccc(-c3nc4cc(O[C@@H]5CO[C@H]6[C@@H]5OC[C@H]6O)[nH]c4cc3F)cc2)cc1", "target or system": "AKT3", "assay": "enzyme activity, inhibitor", "conditions": "10 µM", "quantity": "inhibition", "value": "-14%"}
{"SMILES": "COc1ccccc1-c1n[nH]c2nc(N[C@H]3CC[C@H](NS(=O)(=O)CC(C)C)CC3)ncc12", "assay": "bead binding, competition bead pull-down, measured: LMJF.29.1270", "test system": "Leishmania donovani extract", "conditions": "10 µM", "how to read": "reference: vehicle", "quantity": "relative abundance", "value": 1.03}
{"SMILES": "CC(C)[C@@H]1NC(=O)[C@@H]2CCCN2C(=O)[C@@H](C(C)C)NC(=O)[C@H]2CCCN2C(=O)[C@H](C(C)C)NC(=O)[C@@H]2CCCN2C(=O)[C@@H](C(C)C)NC(=O)[C@H]2CCCN2C(=O)[C@H](C(C)C)NC(=O)[C@@H]2CCCN2C(=O)[C@@H](C(C)C)NC(=O)[C@H]2CCCN2C1=O", "test system": "sheep lipid bilayer", "conditions": "10 µM, pH 7.4, 23 °C, together with: NH4 cation", "quantity": "transference number", "value": 0.94}
{"SMILES": "COc1ccccc1-c1n[nH]c2nc(NC3CCN(C(=O)Cc4ccc(F)cc4F)CC3)ncc12", "assay": "bead binding, competition bead pull-down, measured: LINJ.34.0150", "test system": "Leishmania donovani axenic amastigote extract", "conditions": "10 µM", "how to read": "reference: vehicle", "quantity": "relative abundance", "value": 0.99}
{"SMILES": "Cc1cc(C(=O)Nc2nc3cccc(C)c3n2[C@H]2CCCCN(C(=O)/C=C/CN(C)C)C2)ccn1", "target or system": "Trypanosoma brucei", "test system": "STIB795, mouse acute HAT model", "conditions": "oral, 2.5 mg/kg once daily for 4 days, day 6", "how to read": "reference: mice", "quantity": "survival", "value": "16.7%"}
{"SMILES": "CN1C(=O)C(C2C3=C(CCCC3=O)Oc3ccc(Br)cc32)C(=O)N(C)C1=O (stereo not drawn)", "target or system": "3T3-L1 preadipocytes", "assay": "adipogenesis, Oil Red O staining", "conditions": "IC20, 14 days", "quantity": "mean lipid content", "value": "0.967 OD492"}
{"SMILES": "CC[N+](C)(CC)Cc1cc(Nc2ccnc3cc(Cl)ccc23)ccc1O.[Cl-]", "target or system": "West Nile virus", "assay": "viral replication, Rluc reporter replicon", "test system": "Vero WNV replicon cells", "conditions": "50 µM, 24 h", "quantity": "inhibition", "value": "50.6 ± 4.4%"}
{"SMILES": "C[Si]1(C[C@H](CN)CC(=O)O)CCCC1", "target or system": "sodium channel site 2, rat", "assay": "binding", "conditions": "70 µM", "quantity": "inhibition", "value": "-13%"}
{"SMILES": "O=C1NC2(CC2)COc2ncc(F)cc2[C@H]2COCCN2c2ccn3ncc1c3n2", "test system": "Sprague-Dawley rat, female, serum", "conditions": "oral, 2.5 mg/kg/day, 4 weeks daily, end of recovery period", "quantity": "total cholesterol", "value": "1.78 ± 0.38 mmol/L"}
{"SMILES": "N=C(N)NCCC[C@@H]1NC(=O)[C@H](CCCCNC(=O)CCC(NC(=S)Nc2ccc(CC3CN(CC(=O)O)CCN(CC(=O)O)CCN(CC(=O)O)CCN3CC(=O)O)cc2)C(=O)NCCCC[C@@H]2NC(=O)[C@@H](Cc3ccc(O)cc3)NC(=O)[C@H](CC(=O)O)NC(=O)CNC(=O)[C@H](CCCNC(=N)N)NC2=O)NC(=O)[C@@H](Cc2ccc(O)cc2)NC(=O)[C@H](CC(=O)O)NC(=O)CNC1=O (stereo partly drawn) [scandium-44 labelled]", "assay": "ex vivo γ-counting", "test system": "female athymic nude mice, U-87 MG xenograft, bone", "conditions": "intravenous, 4 h", "quantity": "tissue uptake", "value": "0.35 ± 0.24 %ID/g"}
{"SMILES": "CC[C@H](C)[C@H](NC(=O)[C@H](CO)NC(=O)[C@H](Cc1ccc(O)cc1)NC(=O)[C@H](Cc1ccc(O)cc1)NC(=O)[C@H](CC(N)=O)NC(=O)CNC(=O)[C@H](CO)NC(=O)[C@H](Cc1ccc(O)cc1)NC(=O)[C@H](CO)NC(=O)[C@H](CO)NC(=O)[C@H](CC(N)=O)NC(=O)COCCOCCNC(=O)CN1CCN(CC(=O)O)CCN(CC(=O)O)CCN(CC(=O)O)CC1)C(=O)N[C@@H](CC(C)C)C(N)=O [copper-64 labelled]", "assay": "dynamic PET", "test system": "KPC mouse, pancreatic cancer model, blood", "conditions": "intravenous, 1.1 min, 49 days after tamoxifen", "quantity": "tumour uptake", "value": "25.6 %ID/mL"}
{"SMILES": "CC(C)[C@@H]1NC(=O)[C@H](C)NC(=O)[C@H](Cc2ccc(O)cc2)NC(=O)[C@H](CC(=O)O)NC(=O)[C@@H](NC(=O)[C@H](CCCCN)NC(=O)[C@H](CC(=O)O)NC(=O)[C@H](Cc2c[nH]cn2)NC(=O)[C@@H](NC(=O)[C@H](Cc2ccccc2)NC(=O)[C@@H](N)Cc2ccccc2)C(C)C)CCSSCC[C@@H](C(=O)N[C@@H](CCCCN)C(=O)NCC(=O)N[C@@H](CO)C(=O)N[C@@H](CCCCNC(=O)CCCC[C@@H]2SC[C@@H]3NC(=O)N[C@@H]32)C(N)=O)NC(=O)[C@H](CCC(N)=O)NC(=O)[C@H](Cc2c[nH]cn2)NC1=O", "target or system": "anti-HA antibody 12CA5, mouse", "assay": "biolayer interferometry", "conditions": "30 °C", "quantity": "koff", "value": "4.72e-05 s⁻¹"}
{"SMILES": "Nc1ncc(-c2cc(-c3cnn(CC(F)(F)F)c3)ncc2F)nc1C(=O)NC1CNCC(F)C1 (stereo not drawn)", "target or system": "ABL1(M351T)-phosphorylated", "assay": "KINOMEscan competition binding", "conditions": "1 µM", "how to read": "reference: DMSO control", "quantity": "remaining binding", "value": "100%"}
{"SMILES": "Cc1nc2cccc(OCC(C)(C)C(=O)NC(C)C)c2c(N)c1C(=O)[O-].[Na+]", "target or system": "Salmonella typhimurium", "test system": "TA100", "conditions": "5.0 mg per plate, with S9, preincubation", "quantity": "revertant colonies per plate", "value": "125 ± 12"}
{"SMILES": "CC(C)CC(C(=O)N1CC2(CC1C#N)C(=O)Nc1ccccc12)N(C)C(=O)c1cc2c(F)cc(F)c(F)c2[nH]1 (stereo not drawn)", "target or system": "human coronavirus 229E", "assay": "viral replication", "conditions": "0.0111 µM", "quantity": "inhibition", "value": "100%"}
{"SMILES": "CC(O)CN.O=C(O)C(Cl)Cl", "target or system": "Eclipta prostrata", "conditions": "15 mg/mL, 21 days, pre-emergence, greenhouse", "quantity": "herbicidal inhibition", "value": "0%"}
{"SMILES": "CN(C)[C@H]1C[C@@]23CC[C@@]4(O2)C(=CC[C@]2(C)[C@@H](c5ccc6ccncc6c5)CC[C@H]24)C=C3[C@@H](O)[C@@H]1O", "target or system": "NLK (Homo sapiens, UniProt Q9UBE8)", "assay": "ATP probe labelling, inhibitor, KiNativ profiling", "conditions": "0.1 µM", "quantity": "inhibition", "value": "12.5%"}
{"note": "Repeated from above:"}
{"SMILES": "Cc1cc(C(=O)Nc2nc3cccc(C)c3n2[C@H]2CCCCN(C(=O)/C=C/CN(C)C)C2)ccn1", "target or system": "Trypanosoma brucei", "test system": "STIB795, mouse acute HAT model", "conditions": "oral, 2.5 mg/kg once daily for 4 days, day 6", "how to read": "reference: mice", "quantity": "survival", "value": "16.7%"}
{"SMILES": "CN1C(=O)C(C2C3=C(CCCC3=O)Oc3ccc(Br)cc32)C(=O)N(C)C1=O (stereo not drawn)", "target or system": "3T3-L1 preadipocytes", "assay": "adipogenesis, Oil Red O staining", "conditions": "IC20, 14 days", "quantity": "mean lipid content", "value": "0.967 OD492"}
